Published values from different studies.
A part holds a random share of what one study measured.

Sample 1
Target: Sal-like protein 4, full length isoform B (SALL4, Homo sapiens, UniProt Q9UJQ4-2, residues 1-616)
Technique: universal PBM
Molecule type: double-stranded DNA, one strand shown
Medium: in vitro
Tested at: not given
Notes: 8-mer, flanks averaged, mean of replicates
Reading: higher = stronger binding
Quantity: E-score
Strand = ATCAGGAA; result = 0.039
Strand = CCAGATGG; result = -0.308
Strand = AACCCCCA; result = -0.103
Strand = ATAAATCG; result = 0.216
Strand = CAGTCTTA; result = 0.0836
Strand = ACATACGA; result = 0.19
Strand = TAGGCCCA; result = -0.15
Strand = TCACTTAA; result = 0.216

Sample 2
Target: Replicase polyprotein 1ab, nsp13 helicase (rep, Severe acute respiratory syndrome coronavirus 2, UniProt P0DTD1)
Action: inhibitor
Tested at: 20 µM
Quantity: inhibition
SMILES = CC[C@H](c1ccc(O)cc1)[C@@H](CC)c1ccc(O)cc1; result = -0.7%
SMILES = C1CCC(NC2CCCCC2)CC1; result = 2.72%
SMILES = O[C@H]([C@H](O)[C@@H]1CO1)[C@H]1CO1; result = 1.15%
SMILES = Cc1cc(NC(=O)NCCN2CCC(O)(Cc3ccccc3)CC2)c2ccccc2n1; result = 0.72%
SMILES = C=C[C@@H]1C[C@]1(NC(=O)[C@@H]1C[C@@H]2CN1C(=O)[C@H](C(C)(C)C)NC(=O)O[C@@H]1C[C@H]1CCCCCc1nc3ccc(OC)cc3nc1O2)C(=O)NS(=O)(=O)C1CC1; result = 5.71%
SMILES = Oc1ccc([C@H]2COc3cc(O)ccc3C2)cc1; result = 6.75%
SMILES = CCOc1ccc(Nc2nc(-c3c(C)nc4ccccn34)cs2)cc1; result = 82.6%
SMILES = Cc1sc2c(c1C)C(c1ccc(Cl)cc1)=N[C@@H](CC(=O)Nc1ccc(O)cc1)c1nnc(C)n1-2; result = 0.89%
SMILES = Nc1cccc2c(=O)[nH][nH]c(=O)c12; result = -5.33%
SMILES = Cn1cnc2c(F)c(Nc3ccc(Br)cc3F)c(C(=O)NOCCO)cc21; result = 2.9%
SMILES = CN(C)c1ccc(C(=C2C=CC(=[N+](C)C)C=C2)c2ccc(N(C)C)cc2)cc1; result = 107%
SMILES = CCc1c2c(nc3ccc(O)cc13)-c1cc3c(c(=O)n1C2)COC(=O)[C@]3(O)CC; result = -0.86%
SMILES = CC1(C)C(=O)NC2=C1C(=O)C(=O)c1ccccc12; result = 76.4%
SMILES = COc1cc(/C=C2\CCC/C(=C\c3ccc(O)c(OC)c3)C2=O)ccc1O; result = 17%
SMILES = CCCCOc1c(C(=O)c2c(F)cc(C)cc2F)c[nH]c2nncc1-2; result = 7.38%
SMILES = N#Cc1c(N)nc(SCc2ncc[nH]2)c(C#N)c1-c1ccc(O)cc1; result = 7.46%
SMILES = O=C(NCCO)c1cc(C(=O)NCCO)cc(C(=O)NCCO)c1; result = -3.24%
SMILES = Cc1nc2ccccn2c(=O)c1CCN1CCC(C(=O)c2ccc(F)cc2)CC1; result = 2.1%
SMILES = COc1cc(-c2cc(-c3cccc(O)c3)cnc2N)cc(OC)c1OC; result = 30.6%
SMILES = Cn1nnc(-c2ccc(-c3ccc(N4C[C@H](CO)OC4=O)cc3F)cn2)n1; result = -4.1%
SMILES = COC(=O)/C=C/c1cccc(N(Cc2ccc(-c3ccc(N(C)C)cc3)cc2)C(=O)C2CCCCC2)c1; result = 2.18%
SMILES = COc1cccc2c1C(=O)c1c(O)c3c(c(O)c1C2=O)C[C@@](O)(C(C)=O)C[C@@H]3O[C@H]1C[C@H](N)[C@H](O)[C@H](C)O1; result = 87.8%
SMILES = COc1cc2nc(N3CCN(C(=O)C(C)OC)CC3)nc(N)c2cc1OC (stereo not shown); result = 0.52%
SMILES = CCc1nc2ccc(Cl)cn2c1C(=O)NCc1ccc(N2CCC(c3ccc(OC(F)(F)F)cc3)CC2)cc1; result = 0.66%
SMILES = N#Cc1cc2c(OCC(O)CN3CCN(C(c4ccccc4)c4ccccc4)CC3)cccc2[nH]1 (racemic); result = 3.99%

Sample 3
Target: RNA binding protein fox-1 homolog 2, RRM domain, GST-SBP tag (RBFOX2, Homo sapiens, UniProt O43251-10, residues 100-194)
Technique: RNA Bind-n-Seq
Molecule type: RNA
Medium: in vitro
Tested at: 365 nM
Notes: natural RNA segment, single round, ends assumed
Baseline: no-protein control
Reading: higher = stronger binding
Quantity: RBNS enrichment (R)
All sequences stand within: GGGAGUUCUACAGUCCGACGAUC … UGGAAUUCUCGGGUGCCAA
Construct (chain): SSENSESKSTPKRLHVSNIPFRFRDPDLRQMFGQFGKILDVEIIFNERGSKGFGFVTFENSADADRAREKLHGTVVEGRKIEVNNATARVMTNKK
Strand = GUCACAUAGCACUGUUAAAUUUAUCCGAGGCAUAAGUAGUUCCUAGAGGAGACAGUCUAUCACUCCCCCUAGACCAGGCGCUUUGCGGUGACAGCUGGAGCUAUAUGGAU; result = 0.349
Strand = ACAUAAUUCAAAAGAGUAAAGAAAUGGCUAGGAAUGAGGUAGUUGUGUAAUUAUUUCUUCUCUUACUAGUUUCAAAUAAAUUCAUCUCUAAUUCUAUAGAGAAUUCUUGC; result = 0.932
Strand = UUGAUGGCCAUCUCUGCCUUUUAUAGUCACCUGACACUGACCUACAUCUCUCGCUUGCUUAAAGUCUUGAGGAAAAUGUUCCUGUUUGCUGCGUGGGCCUGGGUGGGAUG; result = 4.29
Strand = UCUAACUUAUUUAUAAAAAGAUGAUCGCUGUAUUUUGAGUUUCAGCUGGAAACUUCUGUAAGGGGCAGCAGUUGAGGUGGGGUAGUGCCGCAGUGGGGUCAAGCUGAGCU; result = 1.03
Strand = UCAGUGGUGCUUUUGUACCUAGGUUUUAUGUGAUUUUAAUGAAACAUGGAUAGUUGUGGCCACCUGCUGACUAUUUGUGGUUUAAAAUAAAAGGUUUACUUGUCUGCAGA; result = 0.361
Strand = UCAGAUGAUUGGGGCAGAAAAGGCAGGGUGGCCCACACCUGCUCUGACUGCUAGCUUCCCACAGAUCCAUGUCUAGAAUACCAGUGUGCUCAGGAAAAGGAAGUCAUUUC; result = 0.413
Strand = UAUCUGUAUCUAAACCAGAAUAUUUUGGUCAAAUAUAAAACAAUAAUAAAAAAAGUUCUGAUGUCAUAGUGUGGGAUAGGGGCAAUCCCAAGGAAAGGUUAUGGGGUAUG; result = 0.863
Strand = UCUUUUAAGGUGCCUCUUCAGGGACACAGUGUGUCUCUCUGAUUGGGCUUCUAAAUCAAAAGCCUGAUGUUCGUGUCCCUCUCAUAGGGGGAGCUUUGGACACAGGACCA; result = 0.305

Sample 4
Organism: SARS-CoV-2
Observed: cytopathic effect
Cells: Vero E6
Tested at: 10 µM
Quantity: inhibition
SMILES = O=C(O)C1[O][Sb]2[O]C(=O)C([O]2)C(C(=O)O)[O][Sb]2[O]C(=O)C1[O]2 (stereo not shown); result = -2.1%
SMILES = CNC[C@H](O)c1ccc(O)c(O)c1; result = 10.8%
SMILES = Cc1ccc(S(=O)(=O)c2ccc([N+](=O)[O-])o2)cc1; result = -32.2%

Sample 5
Target: Histone acetyltransferase KAT6A, both winged helices, GST fusion (KAT6A, Homo sapiens, UniProt Q92794, residues 1-181)
Technique: protein binding microarray
Molecule type: double-stranded DNA, one strand shown
Medium: in vitro
Tested at: not given
Notes: 8-mer, flanks averaged, mean of 2 arrays, mostly near background
Baseline: not given
Reading: higher = stronger binding
Quantity: E-score
Residues (chain): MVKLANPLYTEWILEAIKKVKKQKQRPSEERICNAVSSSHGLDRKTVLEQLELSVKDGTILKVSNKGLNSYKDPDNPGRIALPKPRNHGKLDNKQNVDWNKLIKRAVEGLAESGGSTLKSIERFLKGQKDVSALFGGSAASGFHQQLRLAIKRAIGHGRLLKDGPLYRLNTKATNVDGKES
Strand = GAGGTCAC; result = -0.094
Strand = TTCTAGAA; result = -0.0465
Strand = CACGGACA; result = 0.25
Strand = CGAGATGC; result = 0.0789
Strand = ATCCAACG; result = -0.023
Strand = CGATCGTC; result = 0.228
Strand = TCCTAGAA; result = -0.106
Strand = AATATCGC; result = 0.125

Sample 6
Cell line: HEK-293T
Observed: pseudovirus infection
Technique: FDA-approved drug library screen
Organism: VSV pseudotyped with SARS-CoV-2 spike
Tested at: 10 µM
Time: 16 h
Baseline: vehicle-treated
Quantity: GFP-positive cells
SMILES = COc1cc(N)c(Cl)cc1C(=O)NC1CCN(CCCOc2ccc(F)cc2)CC1OC (stereo not shown); result = 73.6%
SMILES = CN(C)CCCN1c2ccccc2Sc2ccccc21; result = 50.5%
SMILES = CN1CCC(=C2c3ccccc3CC(=O)c3sccc32)CC1; result = 72.7%

Repeated from above (sample 3):
Strand = UAUCUGUAUCUAAACCAGAAUAUUUUGGUCAAAUAUAAAACAAUAAUAAAAAAAGUUCUGAUGUCAUAGUGUGGGAUAGGGGCAAUCCCAAGGAAAGGUUAUGGGGUAUG; result = 0.863
Strand = UCAGAUGAUUGGGGCAGAAAAGGCAGGGUGGCCCACACCUGCUCUGACUGCUAGCUUCCCACAGAUCCAUGUCUAGAAUACCAGUGUGCUCAGGAAAAGGAAGUCAUUUC; result = 0.413
Strand = UCUAACUUAUUUAUAAAAAGAUGAUCGCUGUAUUUUGAGUUUCAGCUGGAAACUUCUGUAAGGGGCAGCAGUUGAGGUGGGGUAGUGCCGCAGUGGGGUCAAGCUGAGCU; result = 1.03
Strand = ACAUAAUUCAAAAGAGUAAAGAAAUGGCUAGGAAUGAGGUAGUUGUGUAAUUAUUUCUUCUCUUACUAGUUUCAAAUAAAUUCAUCUCUAAUUCUAUAGAGAAUUCUUGC; result = 0.932
Strand = UCAGUGGUGCUUUUGUACCUAGGUUUUAUGUGAUUUUAAUGAAACAUGGAUAGUUGUGGCCACCUGCUGACUAUUUGUGGUUUAAAAUAAAAGGUUUACUUGUCUGCAGA; result = 0.361
Strand = GUCACAUAGCACUGUUAAAUUUAUCCGAGGCAUAAGUAGUUCCUAGAGGAGACAGUCUAUCACUCCCCCUAGACCAGGCGCUUUGCGGUGACAGCUGGAGCUAUAUGGAU; result = 0.349
Strand = UCUUUUAAGGUGCCUCUUCAGGGACACAGUGUGUCUCUCUGAUUGGGCUUCUAAAUCAAAAGCCUGAUGUUCGUGUCCCUCUCAUAGGGGGAGCUUUGGACACAGGACCA; result = 0.305
Strand = UUGAUGGCCAUCUCUGCCUUUUAUAGUCACCUGACACUGACCUACAUCUCUCGCUUGCUUAAAGUCUUGAGGAAAAUGUUCCUGUUUGCUGCGUGGGCCUGGGUGGGAUG; result = 4.29
